Measured values collected from several papers.
Every numbered part comes from another study and shows a few of its results, in no order. Changes are numbered by the printed parent chain.
Sequence of UniProt O15530 (whole entry, looked up): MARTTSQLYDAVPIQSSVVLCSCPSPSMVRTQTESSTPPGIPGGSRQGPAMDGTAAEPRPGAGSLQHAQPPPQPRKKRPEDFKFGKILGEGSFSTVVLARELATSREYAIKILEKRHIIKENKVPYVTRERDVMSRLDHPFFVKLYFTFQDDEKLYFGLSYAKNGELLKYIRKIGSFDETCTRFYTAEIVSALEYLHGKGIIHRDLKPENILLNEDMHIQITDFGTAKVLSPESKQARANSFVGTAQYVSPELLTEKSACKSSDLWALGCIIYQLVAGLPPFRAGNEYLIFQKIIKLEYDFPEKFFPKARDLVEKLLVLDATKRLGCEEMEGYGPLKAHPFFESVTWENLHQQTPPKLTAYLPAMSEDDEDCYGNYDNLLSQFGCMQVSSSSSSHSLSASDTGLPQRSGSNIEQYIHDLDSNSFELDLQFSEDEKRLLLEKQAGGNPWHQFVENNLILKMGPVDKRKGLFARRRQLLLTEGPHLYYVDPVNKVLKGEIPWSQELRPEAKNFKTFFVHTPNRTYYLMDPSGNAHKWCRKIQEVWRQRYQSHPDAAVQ
Sequence of UniProt Q06187 (whole entry, looked up): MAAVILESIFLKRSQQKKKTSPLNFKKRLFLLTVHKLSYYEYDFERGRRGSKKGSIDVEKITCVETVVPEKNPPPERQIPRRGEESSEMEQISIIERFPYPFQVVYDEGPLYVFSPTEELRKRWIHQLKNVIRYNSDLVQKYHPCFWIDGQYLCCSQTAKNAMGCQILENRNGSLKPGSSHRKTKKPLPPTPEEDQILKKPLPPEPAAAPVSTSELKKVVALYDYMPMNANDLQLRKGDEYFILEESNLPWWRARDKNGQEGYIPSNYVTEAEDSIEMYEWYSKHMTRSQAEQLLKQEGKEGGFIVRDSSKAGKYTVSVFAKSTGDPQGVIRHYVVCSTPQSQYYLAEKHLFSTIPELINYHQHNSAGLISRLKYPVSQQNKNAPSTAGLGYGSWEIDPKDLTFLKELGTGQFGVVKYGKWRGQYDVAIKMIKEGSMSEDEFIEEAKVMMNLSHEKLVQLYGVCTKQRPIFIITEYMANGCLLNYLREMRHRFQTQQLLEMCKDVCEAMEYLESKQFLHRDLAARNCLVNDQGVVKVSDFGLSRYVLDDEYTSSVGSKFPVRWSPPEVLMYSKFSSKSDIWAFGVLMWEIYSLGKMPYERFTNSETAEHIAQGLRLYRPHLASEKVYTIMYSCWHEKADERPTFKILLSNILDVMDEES
Sequence of UniProt O95747 (whole entry, looked up): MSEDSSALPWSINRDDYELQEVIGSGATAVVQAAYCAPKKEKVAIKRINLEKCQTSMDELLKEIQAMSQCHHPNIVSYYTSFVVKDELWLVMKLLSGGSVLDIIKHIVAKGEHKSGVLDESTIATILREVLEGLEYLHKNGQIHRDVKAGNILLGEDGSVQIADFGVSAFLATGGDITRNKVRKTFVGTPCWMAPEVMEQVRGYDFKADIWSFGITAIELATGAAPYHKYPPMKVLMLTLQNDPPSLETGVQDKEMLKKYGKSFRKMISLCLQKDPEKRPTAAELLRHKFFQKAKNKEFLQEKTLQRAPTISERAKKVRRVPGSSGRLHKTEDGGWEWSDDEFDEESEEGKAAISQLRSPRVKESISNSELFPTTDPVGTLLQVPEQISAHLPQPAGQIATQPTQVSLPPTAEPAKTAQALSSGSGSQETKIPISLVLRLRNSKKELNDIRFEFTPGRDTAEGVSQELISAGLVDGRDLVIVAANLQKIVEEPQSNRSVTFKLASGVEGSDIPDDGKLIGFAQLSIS
Sequence of UniProt Q9P2K8 (whole entry, unmodified, looked up): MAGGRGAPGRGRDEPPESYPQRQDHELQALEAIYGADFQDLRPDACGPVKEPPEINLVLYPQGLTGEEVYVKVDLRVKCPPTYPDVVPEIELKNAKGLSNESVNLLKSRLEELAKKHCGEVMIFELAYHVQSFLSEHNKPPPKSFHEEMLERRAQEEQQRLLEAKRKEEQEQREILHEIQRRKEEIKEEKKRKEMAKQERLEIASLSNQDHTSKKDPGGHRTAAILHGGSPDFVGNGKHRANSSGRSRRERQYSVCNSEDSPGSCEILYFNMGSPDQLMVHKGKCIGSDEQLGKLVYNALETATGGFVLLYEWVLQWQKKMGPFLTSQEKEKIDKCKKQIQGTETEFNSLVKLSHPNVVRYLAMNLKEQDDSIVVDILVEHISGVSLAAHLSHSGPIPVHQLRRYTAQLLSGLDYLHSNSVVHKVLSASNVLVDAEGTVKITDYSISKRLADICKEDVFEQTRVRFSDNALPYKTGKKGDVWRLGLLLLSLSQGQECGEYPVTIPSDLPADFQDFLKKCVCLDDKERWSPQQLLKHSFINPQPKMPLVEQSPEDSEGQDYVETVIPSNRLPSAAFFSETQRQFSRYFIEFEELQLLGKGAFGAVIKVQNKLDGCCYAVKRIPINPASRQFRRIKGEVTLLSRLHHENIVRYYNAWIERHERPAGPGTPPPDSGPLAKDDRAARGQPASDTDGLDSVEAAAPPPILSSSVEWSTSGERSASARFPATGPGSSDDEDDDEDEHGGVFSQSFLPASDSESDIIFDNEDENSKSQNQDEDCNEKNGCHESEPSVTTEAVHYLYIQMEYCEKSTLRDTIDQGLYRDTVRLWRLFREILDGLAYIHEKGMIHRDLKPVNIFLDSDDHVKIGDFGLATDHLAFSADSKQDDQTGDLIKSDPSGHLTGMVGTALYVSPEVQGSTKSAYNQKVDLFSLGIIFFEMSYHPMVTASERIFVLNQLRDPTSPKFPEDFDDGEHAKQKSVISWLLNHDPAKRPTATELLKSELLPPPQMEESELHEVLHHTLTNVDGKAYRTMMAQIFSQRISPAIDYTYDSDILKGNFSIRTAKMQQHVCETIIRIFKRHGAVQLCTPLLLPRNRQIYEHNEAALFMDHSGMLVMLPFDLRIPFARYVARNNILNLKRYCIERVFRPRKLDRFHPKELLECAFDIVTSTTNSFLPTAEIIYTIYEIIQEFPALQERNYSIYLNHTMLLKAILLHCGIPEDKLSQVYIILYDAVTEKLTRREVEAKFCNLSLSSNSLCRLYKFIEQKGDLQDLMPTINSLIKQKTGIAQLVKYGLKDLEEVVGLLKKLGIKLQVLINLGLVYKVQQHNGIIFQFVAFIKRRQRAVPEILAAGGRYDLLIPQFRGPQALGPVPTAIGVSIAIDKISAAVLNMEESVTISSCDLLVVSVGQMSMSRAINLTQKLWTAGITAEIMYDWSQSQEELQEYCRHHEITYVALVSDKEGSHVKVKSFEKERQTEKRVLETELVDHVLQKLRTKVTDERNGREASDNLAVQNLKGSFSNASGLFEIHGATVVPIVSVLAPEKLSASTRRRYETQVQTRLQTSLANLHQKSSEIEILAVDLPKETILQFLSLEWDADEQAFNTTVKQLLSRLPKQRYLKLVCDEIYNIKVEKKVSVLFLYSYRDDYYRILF
Sequence of UniProt Q8IVW4 (whole entry, looked up): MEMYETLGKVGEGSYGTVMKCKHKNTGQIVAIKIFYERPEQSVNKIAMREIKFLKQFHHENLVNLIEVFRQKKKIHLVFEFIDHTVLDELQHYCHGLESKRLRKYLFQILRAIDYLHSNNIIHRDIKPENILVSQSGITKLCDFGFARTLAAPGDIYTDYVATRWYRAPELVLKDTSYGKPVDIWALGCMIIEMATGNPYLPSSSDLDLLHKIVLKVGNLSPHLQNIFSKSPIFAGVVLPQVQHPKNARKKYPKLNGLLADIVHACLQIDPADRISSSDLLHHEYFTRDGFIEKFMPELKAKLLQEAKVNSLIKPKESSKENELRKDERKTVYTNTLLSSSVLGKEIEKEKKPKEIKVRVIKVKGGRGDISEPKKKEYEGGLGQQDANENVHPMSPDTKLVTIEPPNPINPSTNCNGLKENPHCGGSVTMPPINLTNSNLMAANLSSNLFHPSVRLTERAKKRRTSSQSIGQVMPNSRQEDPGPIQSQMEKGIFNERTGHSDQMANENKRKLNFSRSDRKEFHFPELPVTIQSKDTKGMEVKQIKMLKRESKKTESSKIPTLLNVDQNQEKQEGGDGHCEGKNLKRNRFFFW
Sequence of UniProt Q07002 (whole entry, looked up): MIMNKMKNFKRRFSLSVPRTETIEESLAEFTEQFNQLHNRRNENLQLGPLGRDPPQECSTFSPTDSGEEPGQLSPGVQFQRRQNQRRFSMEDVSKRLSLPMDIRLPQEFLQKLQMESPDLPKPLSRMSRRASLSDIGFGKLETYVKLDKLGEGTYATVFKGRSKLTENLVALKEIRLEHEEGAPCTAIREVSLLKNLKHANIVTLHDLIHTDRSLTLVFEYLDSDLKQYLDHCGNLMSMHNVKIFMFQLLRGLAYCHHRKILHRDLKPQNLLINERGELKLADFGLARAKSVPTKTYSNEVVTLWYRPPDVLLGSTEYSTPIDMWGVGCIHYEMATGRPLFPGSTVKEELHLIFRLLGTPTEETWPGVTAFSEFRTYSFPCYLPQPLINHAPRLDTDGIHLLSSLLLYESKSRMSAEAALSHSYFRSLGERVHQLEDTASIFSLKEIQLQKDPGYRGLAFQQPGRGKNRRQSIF

Study 1
SMILES: O=C1NC(=O)C(c2c[nH]c3ccccc23)=C1c1c[nH]c2ccccc12
Read-out: enzyme activity
Mode: inhibitor
Concentration: 0.5 µM
Relative to: control
Measurement: remaining activity
Tyrosine-protein kinase Lyn, isoform B (LYN, Homo sapiens, UniProt P07948): 102%
Serine/threonine-protein kinase OSR1 (OXSR1, Homo sapiens, UniProt O95747): 86.3%
Cyclin-dependent kinase 5, with p25 (CDK5, Homo sapiens, UniProt Q00535): 87.4%
cAMP-dependent protein kinase catalytic subunit alpha (PRKACA, Homo sapiens, UniProt P17612): 101%
Mitogen-activated protein kinase 9 (MAPK9, Homo sapiens, UniProt P45984): 95.4%

Study 2
Target: NFE2, bZIP domain (human)
Technique: DHFR protein complementation
Sample: yeast
Notes: single substitutions, most at no-binding floor
Relative to: wild-type JUN-FOS pair
Direction: higher = stronger binding
Measurement: binding fitness
Parent: JUN, bZIP domain (human); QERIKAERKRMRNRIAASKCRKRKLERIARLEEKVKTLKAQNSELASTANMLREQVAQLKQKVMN; partner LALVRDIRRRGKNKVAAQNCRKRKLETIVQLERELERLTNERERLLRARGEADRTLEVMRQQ
T37G: -1.48 natural log
R53N: -1.48 natural log
S47V: -1.39 natural log
N42T: -1.44 natural log
R30Y: -1.48 natural log
M51D: -1.4 natural log
T37K: -1.39 natural log
M51G: -1.33 natural log

Study 3
SMILES: CC(=O)c1c(NS(C)(=O)=O)c2cc(-c3ccc(Cl)cc3)c(-c3ccc(Cl)cc3Cl)nc2n(C)c1=O
Read-out: cell-free assay
Technique: competition with immobilised ligand
Concentration: 1 µM
Measurement: remaining binding
3-phosphoinositide-dependent protein kinase 1 (PDPK1, Homo sapiens, UniProt O15530): 100%
eIF-2-alpha kinase GCN2, C-terminal kinase domain (EIF2AK4, Homo sapiens, UniProt Q9P2K8, S808G): 100%
Atypical kinase COQ8A, mitochondrial (COQ8A, Homo sapiens, UniProt Q8NI60): 100%
Serine/threonine-protein kinase Nek9 (NEK9, Homo sapiens, UniProt Q8TD19): 100%
Cyclin-dependent kinase 18 (CDK18, Homo sapiens, UniProt Q07002): 100%
Tyrosine-protein kinase BTK (BTK, Homo sapiens, UniProt Q06187): 84%
Cyclin-dependent kinase-like 3 (CDKL3, Homo sapiens, UniProt Q8IVW4): 100%
Dual specificity testis-specific protein kinase 1 (TESK1, Homo sapiens, UniProt Q15569): 100%
Tyrosine-protein kinase ZAP-70 (ZAP70, Homo sapiens, UniProt P43403): 100%
Receptor-type tyrosine-protein kinase FLT3 (FLT3, Homo sapiens, UniProt P36888, F691L/ITD): 94%
Tyrosine-protein kinase JAK2, JH1 (JAK2, Homo sapiens, UniProt O60674): 97%
Serine/threonine-protein kinase PAK 6 (PAK6, Homo sapiens, UniProt Q9NQU5): 100%
Ephrin type-B receptor 4 (EPHB4, Homo sapiens, UniProt P54760): 92%
Serine/threonine-protein kinase ULK2 (ULK2, Homo sapiens, UniProt Q8IYT8): 97%
Serine/threonine-protein kinase 32B (STK32B, Homo sapiens, UniProt Q9NY57): 89%
Calcium/calmodulin-dependent protein kinase type 1D (CAMK1D, Homo sapiens, UniProt Q8IU85): 100%
Serine/threonine-protein kinase MARK2 (MARK2, Homo sapiens, UniProt Q7KZI7): 100%

Study 4
Target: Centromere-binding protein 1, full length, N-terminal tag (CBF1, Saccharomyces cerevisiae, UniProt P17106, residues 1-351)
Sequence of UniProt P17106 (whole entry, looked up): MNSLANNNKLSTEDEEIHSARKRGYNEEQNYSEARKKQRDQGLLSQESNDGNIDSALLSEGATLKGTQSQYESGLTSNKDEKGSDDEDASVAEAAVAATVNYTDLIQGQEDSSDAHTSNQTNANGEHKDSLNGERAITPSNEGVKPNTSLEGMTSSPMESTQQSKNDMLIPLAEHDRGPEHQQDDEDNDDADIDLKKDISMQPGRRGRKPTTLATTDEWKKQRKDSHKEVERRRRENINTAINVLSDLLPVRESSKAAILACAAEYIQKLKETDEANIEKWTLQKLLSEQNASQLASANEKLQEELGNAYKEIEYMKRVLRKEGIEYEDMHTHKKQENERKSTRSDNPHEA
Technique: protein-binding microarray
Form: double-stranded DNA, one strand shown
Sample: in vitro
Concentration: 0.8 µM
Notes: whole 60-bp probe, no competitor
Direction: higher = stronger binding
Measurement: fluorescence intensity
All sequences stand within: … GTCTTGATTCGCTTGACGCTGCTG
CTAATCAGCCACGGCCCCGTGTAAGCCGTAAAGTTC: 540 a.u.
CTAGTGTGCAGCCACGTGCGGATGAATAATAAATTC: 3900 a.u.
CTAATCAATGAATGACATCAGATAAAACGAAAGTTC: 552 a.u.
GAAGGCTGCGTAGACCACGCAGAACTGTATATGTAG: 498 a.u.
GAACCGCGGTCGTGCTGCGTGATCAGCTACATGTAG: 1090 a.u.
CTATACCTAATATATACCACCACCGTCAAGGGGTTC: 497 a.u.
TGTACGAAGCTATCCCGCATGACTATAGTAGTTAGG: 594 a.u.
GAATTAATTCATGATCACGCTCTAATTTGTGCATAG: 2160 a.u.

Excerpt of the above (study 3):
Dual specificity testis-specific protein kinase 1 (TESK1, Homo sapiens, UniProt Q15569): 100%
Serine/threonine-protein kinase 32B (STK32B, Homo sapiens, UniProt Q9NY57): 89%
Serine/threonine-protein kinase Nek9 (NEK9, Homo sapiens, UniProt Q8TD19): 100%
Cyclin-dependent kinase 18 (CDK18, Homo sapiens, UniProt Q07002): 100%
